Assay results gathered from unrelated publications.
Each numbered part is a random draw from the data of one study; scales do not carry over between parts.
UniProt Q99558, sequence (whole entry, looked up): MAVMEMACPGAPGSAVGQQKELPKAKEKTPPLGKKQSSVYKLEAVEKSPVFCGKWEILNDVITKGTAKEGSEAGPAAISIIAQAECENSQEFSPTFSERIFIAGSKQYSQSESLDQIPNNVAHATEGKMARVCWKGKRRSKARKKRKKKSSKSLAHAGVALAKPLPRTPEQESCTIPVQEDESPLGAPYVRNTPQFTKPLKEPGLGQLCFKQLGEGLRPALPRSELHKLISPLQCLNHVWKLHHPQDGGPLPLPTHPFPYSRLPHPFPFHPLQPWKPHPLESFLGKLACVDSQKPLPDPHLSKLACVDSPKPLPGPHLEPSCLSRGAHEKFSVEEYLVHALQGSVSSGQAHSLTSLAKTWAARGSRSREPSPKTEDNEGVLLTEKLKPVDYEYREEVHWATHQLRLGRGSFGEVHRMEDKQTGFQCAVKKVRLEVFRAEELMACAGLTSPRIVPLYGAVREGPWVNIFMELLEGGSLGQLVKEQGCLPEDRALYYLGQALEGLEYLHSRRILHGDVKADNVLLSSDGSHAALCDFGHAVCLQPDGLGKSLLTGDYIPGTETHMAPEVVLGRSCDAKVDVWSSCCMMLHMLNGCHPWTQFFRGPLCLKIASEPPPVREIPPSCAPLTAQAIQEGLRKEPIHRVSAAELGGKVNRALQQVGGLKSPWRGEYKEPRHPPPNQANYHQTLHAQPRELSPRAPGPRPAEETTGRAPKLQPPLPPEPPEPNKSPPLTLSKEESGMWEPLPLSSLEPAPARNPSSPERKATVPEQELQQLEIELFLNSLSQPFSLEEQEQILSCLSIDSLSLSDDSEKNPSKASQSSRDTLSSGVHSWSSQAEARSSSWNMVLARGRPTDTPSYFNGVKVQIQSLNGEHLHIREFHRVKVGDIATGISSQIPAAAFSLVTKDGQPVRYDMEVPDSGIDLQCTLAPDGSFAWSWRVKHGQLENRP
UniProt P23458, sequence (whole entry, looked up): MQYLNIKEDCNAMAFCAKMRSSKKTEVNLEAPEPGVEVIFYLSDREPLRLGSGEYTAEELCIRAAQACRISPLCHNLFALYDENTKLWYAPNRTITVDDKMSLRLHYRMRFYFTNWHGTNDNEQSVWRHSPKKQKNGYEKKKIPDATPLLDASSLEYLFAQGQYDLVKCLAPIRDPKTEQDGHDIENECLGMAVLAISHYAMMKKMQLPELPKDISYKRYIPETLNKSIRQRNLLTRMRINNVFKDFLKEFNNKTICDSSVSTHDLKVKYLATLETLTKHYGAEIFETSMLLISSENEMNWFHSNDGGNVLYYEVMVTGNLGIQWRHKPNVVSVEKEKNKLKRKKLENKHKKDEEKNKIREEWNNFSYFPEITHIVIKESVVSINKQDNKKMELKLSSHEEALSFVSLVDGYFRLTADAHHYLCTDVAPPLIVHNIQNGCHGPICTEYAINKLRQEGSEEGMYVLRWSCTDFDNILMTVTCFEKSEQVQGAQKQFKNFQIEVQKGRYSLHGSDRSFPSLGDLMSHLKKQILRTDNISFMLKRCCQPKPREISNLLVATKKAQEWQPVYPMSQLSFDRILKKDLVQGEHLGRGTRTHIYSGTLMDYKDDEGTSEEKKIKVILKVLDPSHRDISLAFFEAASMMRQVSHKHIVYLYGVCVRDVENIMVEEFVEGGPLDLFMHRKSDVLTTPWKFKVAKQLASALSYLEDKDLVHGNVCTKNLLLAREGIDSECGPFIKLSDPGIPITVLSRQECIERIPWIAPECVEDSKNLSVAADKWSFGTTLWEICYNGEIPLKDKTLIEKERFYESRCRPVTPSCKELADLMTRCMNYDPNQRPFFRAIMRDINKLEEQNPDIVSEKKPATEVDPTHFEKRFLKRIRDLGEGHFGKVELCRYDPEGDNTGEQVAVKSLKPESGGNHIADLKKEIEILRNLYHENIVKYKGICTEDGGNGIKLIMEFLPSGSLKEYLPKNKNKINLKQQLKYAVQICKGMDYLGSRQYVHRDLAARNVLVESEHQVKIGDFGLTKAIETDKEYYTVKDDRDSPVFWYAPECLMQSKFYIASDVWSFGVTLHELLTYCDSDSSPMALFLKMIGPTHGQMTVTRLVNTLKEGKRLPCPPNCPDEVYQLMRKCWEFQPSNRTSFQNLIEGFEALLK
UniProt P10398, sequence (whole entry, looked up): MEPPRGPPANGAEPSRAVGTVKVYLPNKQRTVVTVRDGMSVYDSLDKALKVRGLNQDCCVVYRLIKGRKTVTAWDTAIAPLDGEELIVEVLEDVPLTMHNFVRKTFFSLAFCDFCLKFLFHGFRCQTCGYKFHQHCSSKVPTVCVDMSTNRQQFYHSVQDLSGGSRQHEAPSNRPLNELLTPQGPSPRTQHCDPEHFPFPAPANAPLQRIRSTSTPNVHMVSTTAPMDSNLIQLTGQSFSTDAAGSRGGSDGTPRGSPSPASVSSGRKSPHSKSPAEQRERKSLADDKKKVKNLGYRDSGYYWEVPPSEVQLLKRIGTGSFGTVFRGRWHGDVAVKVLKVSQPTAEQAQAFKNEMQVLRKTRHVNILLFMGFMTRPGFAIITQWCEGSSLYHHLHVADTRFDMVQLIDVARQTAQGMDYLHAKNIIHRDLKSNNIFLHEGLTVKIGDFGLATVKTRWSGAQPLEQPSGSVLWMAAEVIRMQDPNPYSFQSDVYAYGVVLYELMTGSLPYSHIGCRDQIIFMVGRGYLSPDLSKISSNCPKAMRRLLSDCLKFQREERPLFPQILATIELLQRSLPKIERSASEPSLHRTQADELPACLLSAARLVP
UniProt Q9Y6M4, sequence (whole entry, looked up): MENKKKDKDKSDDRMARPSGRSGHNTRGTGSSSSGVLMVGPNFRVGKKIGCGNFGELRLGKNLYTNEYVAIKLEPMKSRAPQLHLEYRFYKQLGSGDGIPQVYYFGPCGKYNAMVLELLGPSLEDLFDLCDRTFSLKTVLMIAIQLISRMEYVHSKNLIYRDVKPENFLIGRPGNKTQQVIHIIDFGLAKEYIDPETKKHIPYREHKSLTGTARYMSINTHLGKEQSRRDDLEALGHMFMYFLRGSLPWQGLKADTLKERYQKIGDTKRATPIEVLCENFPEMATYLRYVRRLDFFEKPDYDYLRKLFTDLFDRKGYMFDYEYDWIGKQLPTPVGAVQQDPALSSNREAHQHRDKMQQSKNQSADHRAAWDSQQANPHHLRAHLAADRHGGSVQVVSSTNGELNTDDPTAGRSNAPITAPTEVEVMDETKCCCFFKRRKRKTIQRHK
UniProt P42685, sequence (whole entry, looked up): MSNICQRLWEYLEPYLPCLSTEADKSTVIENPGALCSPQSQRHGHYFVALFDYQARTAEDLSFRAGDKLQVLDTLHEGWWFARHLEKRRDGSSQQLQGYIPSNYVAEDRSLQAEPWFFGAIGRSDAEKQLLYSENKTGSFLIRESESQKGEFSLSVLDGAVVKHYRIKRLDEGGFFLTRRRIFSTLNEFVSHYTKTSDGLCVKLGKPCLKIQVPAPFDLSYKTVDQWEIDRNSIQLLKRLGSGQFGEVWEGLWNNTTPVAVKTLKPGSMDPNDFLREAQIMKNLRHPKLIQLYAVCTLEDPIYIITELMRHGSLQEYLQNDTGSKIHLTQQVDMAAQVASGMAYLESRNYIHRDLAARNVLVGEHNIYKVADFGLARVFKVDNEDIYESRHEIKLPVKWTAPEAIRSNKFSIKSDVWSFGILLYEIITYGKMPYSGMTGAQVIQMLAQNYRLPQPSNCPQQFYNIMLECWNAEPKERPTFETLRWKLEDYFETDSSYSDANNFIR
UniProt Q8N4C8, sequence (whole entry, looked up): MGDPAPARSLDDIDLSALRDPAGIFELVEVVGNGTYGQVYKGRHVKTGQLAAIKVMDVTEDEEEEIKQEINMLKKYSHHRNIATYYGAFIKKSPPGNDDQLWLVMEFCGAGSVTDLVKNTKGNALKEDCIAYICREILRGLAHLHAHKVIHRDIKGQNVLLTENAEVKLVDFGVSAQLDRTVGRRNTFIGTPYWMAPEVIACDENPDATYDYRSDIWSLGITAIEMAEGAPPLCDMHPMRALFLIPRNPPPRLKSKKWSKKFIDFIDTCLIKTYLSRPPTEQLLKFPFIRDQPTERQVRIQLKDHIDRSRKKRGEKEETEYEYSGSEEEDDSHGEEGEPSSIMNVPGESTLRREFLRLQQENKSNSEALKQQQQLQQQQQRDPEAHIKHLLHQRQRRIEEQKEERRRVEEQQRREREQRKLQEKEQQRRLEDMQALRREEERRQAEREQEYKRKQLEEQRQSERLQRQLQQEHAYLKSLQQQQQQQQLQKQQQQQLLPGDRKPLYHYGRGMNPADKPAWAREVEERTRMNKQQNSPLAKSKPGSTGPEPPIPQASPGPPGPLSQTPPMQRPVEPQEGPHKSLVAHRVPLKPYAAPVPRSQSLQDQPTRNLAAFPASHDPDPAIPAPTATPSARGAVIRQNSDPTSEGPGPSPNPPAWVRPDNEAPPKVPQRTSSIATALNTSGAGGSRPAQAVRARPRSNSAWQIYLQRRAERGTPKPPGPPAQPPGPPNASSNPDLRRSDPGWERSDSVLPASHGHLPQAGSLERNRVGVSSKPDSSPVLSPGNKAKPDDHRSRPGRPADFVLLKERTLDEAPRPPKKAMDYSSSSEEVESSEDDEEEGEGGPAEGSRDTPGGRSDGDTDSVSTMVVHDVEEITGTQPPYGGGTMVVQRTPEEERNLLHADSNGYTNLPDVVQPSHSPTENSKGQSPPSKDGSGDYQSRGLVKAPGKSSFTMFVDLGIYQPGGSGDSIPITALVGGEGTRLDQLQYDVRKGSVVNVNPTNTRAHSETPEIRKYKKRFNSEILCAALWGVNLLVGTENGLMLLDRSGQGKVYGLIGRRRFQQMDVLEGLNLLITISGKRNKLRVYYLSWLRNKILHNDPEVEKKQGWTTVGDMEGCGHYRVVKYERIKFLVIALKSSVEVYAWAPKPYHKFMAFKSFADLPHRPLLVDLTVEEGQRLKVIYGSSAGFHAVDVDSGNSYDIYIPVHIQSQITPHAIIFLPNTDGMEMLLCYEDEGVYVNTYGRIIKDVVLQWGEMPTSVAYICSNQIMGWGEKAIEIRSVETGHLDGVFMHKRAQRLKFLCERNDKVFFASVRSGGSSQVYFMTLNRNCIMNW

Set 1 — tested at: 1 µM
Structure (SMILES): O=C(N[C@H]1CCCCC/C=C\C2C[C@@]2(C(=O)O)NC(=O)[C@@H]2C[C@@H](Oc3ccncc3)CN2C1=O)OC1CCCC1 (stereo partly drawn)
| target | test | remaining binding |
| --- | --- | --- |
| CDK11A (Homo sapiens, UniProt Q9UQ88) | binding, competition with immobilised ligand | 88% |
| MINK1 (Homo sapiens, UniProt Q8N4C8) | binding, competition with immobilised ligand | 100% |
| EGFR (Homo sapiens, UniProt P00533, del747-752/P753S) | cell-free assay, competition with immobilised ligand | 85% |
| STK4 (Homo sapiens, UniProt Q13043) | binding, competition with immobilised ligand | 100% |
| CAMK1 (Homo sapiens, UniProt Q14012) | cell-free assay, competition with immobilised ligand | 87% |
| MYLK2 (Homo sapiens, UniProt Q9H1R3) | binding, competition with immobilised ligand | 100% |
| Tyrosine-protein kinase JAK1, JH2 (JAK1, Homo sapiens, UniProt P23458) | binding, competition with immobilised ligand | 89% |
| ALK (Homo sapiens, UniProt Q9UM73, C1156Y) | cell-free assay, competition with immobilised ligand | 100% |
| NLK (Homo sapiens, UniProt Q9UBE8) | binding, competition with immobilised ligand | 100% |
| SRPK3 (Homo sapiens, UniProt Q9UPE1) | binding, competition with immobilised ligand | 89% |
| NIM1K (Homo sapiens, UniProt Q8IY84) | binding, competition with immobilised ligand | 82% |
| KDR (Homo sapiens, UniProt P35968) | cell-free assay, competition with immobilised ligand | 100% |
| LIM domain kinase 1 (LIMK1, Homo sapiens, UniProt P53667) | binding, competition with immobilised ligand | 92% |
| MAPK1 (Homo sapiens, UniProt P28482) | binding, competition with immobilised ligand | 72% |
| Myosin-IIIa (MYO3A, Homo sapiens, UniProt Q8NEV4) | binding, competition with immobilised ligand | 94% |
| CDK18 (Homo sapiens, UniProt Q07002) | binding, competition with immobilised ligand | 92% |
| SIK1 (Homo sapiens, UniProt P57059) | competition binding | 83% |
| Ribosomal protein S6 kinase alpha-4, C-terminal kinase domain (RPS6KA4, Homo sapiens, UniProt O75676) | binding, competition with immobilised ligand | 85% |
| MAPKAPK5 (Homo sapiens, UniProt Q8IW41) | binding, competition with immobilised ligand | 96% |
| STK11 (Homo sapiens, UniProt Q15831) | binding, competition with immobilised ligand | 85% |
| PKMYT1 (Homo sapiens, UniProt Q99640) | binding, competition with immobilised ligand | 97% |

Set 2 — Structure (SMILES): N#C/C(=C\c1ccc(O)c(O)c1)C(=O)NCc1ccccc1; observed: enzyme activity; mode: inhibitor; tested at: 0.5 µM; baseline: control
| target | remaining activity [%] |
| --- | --- |
| TBK1 (Homo sapiens, UniProt Q9UHD2) | 98.3 |
| FGFR1 (Homo sapiens, UniProt P11362) | 92.8 |
| FGFR3 (Homo sapiens, UniProt P22607) | 98.2 |
| MERTK (Homo sapiens, UniProt Q12866) | 89 |
| MAPK3 (Homo sapiens, UniProt P27361) | 106 |
| MST1R (Homo sapiens, UniProt Q04912) | 102 |
| MAP3K14 (Homo sapiens, UniProt Q99558) | 109 |
| MAP3K5 (Homo sapiens, UniProt Q99683) | 104 |
| FRK (Homo sapiens, UniProt P42685) | 97.4 |
| LCK (Homo sapiens, UniProt P06239) | 95.7 |
| ARAF (Homo sapiens, UniProt P10398) | 95.2 |
| ULK3 (Homo sapiens, UniProt Q6PHR2) | 71.2 |
| MAP2K2 (Homo sapiens, UniProt P36507) | 105 |
| CSNK1G3 (Homo sapiens, UniProt Q9Y6M4) | 104 |

Set 3 — cell line: HH; tested at: 2 µM; time: 48 h; baseline: untreated
| Structure (SMILES) | viability [%] |
| --- | --- |
| CN1CCC(COc2cnc(-c3cccc(Cn4nc(-c5cccc(C#N)c5)ccc4=O)c3)nc2)CC1 | 73.5 |
| CN1CCN(c2ccc(C(=O)Nc3n[nH]c4ccc(Cc5cc(F)cc(F)c5)cc34)c(NC3CCOCC3)c2)CC1 | 67.4 |
| CC1(C)CNc2cc(NC(=O)c3cccnc3NCc3ccncc3)ccc21 | 88.7 |
| C[C@@H](Oc1cc(-c2cnn(C3CCNCC3)c2)cnc1N)c1c(Cl)ccc(F)c1Cl | 58.6 |
| NC1(Cc2ccc(Cl)cc2)CCN(c2ncnc3[nH]ccc23)CC1 | 54.7 |
| C=CC(=O)Nc1cccc(Oc2nc(Nc3ccc(N4CCN(C)CC4)cc3)nc3ccsc23)c1 | 64.2 |
| CCN(C)S(=O)(=O)Nc1ccc(F)c(C(=O)c2c[nH]c3ncc(-c4cnc(C5CC5)nc4)cc23)c1F | 78.9 |

Set 4 — organism: Sarcocystis neurona; observed: parasite growth; tested at: 10 µM; time: 96 h; notes: secondary screen
| Compound | inhibition [%] |
| --- | --- |
| CC(=O)Nc1nnc(S(N)(=O)=O)s1 | -15.1 |
| CC(C)C[C@H](NC(=O)[C@@H](O)[C@H](N)Cc1ccccc1)C(=O)O | -43.1 |
| OC(Cn1cncn1)(Cn1cncn1)c1ccc(F)cc1F | -7.3 |
| Nc1nc(F)nc2c1ncn2[C@@H]1O[C@H](CO)[C@@H](O)[C@@H]1O | -19.7 |
| CNS(=O)(=O)Cc1ccc2[nH]cc(CCN(C)C)c2c1 | -24.9 |
| Cc1cccc(Nc2ccccc2C(=O)O)c1C | -14.2 |
| CNNCc1ccc(C(=O)NC(C)C)cc1 | -15 |
| C[C@]12C[C@H](O)[C@H]3[C@@H](CCC4=CC(=O)CC[C@@]43C)[C@@H]1CC[C@@H]2C(=O)CO | -5.5 |
| CC(C)(C#N)c1cc(Cn2cncn2)cc(C(C)(C)C#N)c1 | -45.4 |

Repeated from above (set 2):
| target | remaining activity [%] |
| --- | --- |
| FGFR1 (Homo sapiens, UniProt P11362) | 92.8 |
| FGFR3 (Homo sapiens, UniProt P22607) | 98.2 |
| MERTK (Homo sapiens, UniProt Q12866) | 89 |
| MAPK3 (Homo sapiens, UniProt P27361) | 106 |
| MST1R (Homo sapiens, UniProt Q04912) | 102 |
| MAP3K14 (Homo sapiens, UniProt Q99558) | 109 |
| MAP3K5 (Homo sapiens, UniProt Q99683) | 104 |
